Experimental data of several laboratories.
± marks the error that the study gave.

Compound	cell line	test	conditions	IC50
COc1cc(-c2cc(=O)c3c(O)cc(OC4OC(COC5OC(C)C(O)C(O)C5O)C(O)C(O)C4O)cc3o2)ccc1O (stereo not shown)	HCT-116 p53-/- colon cancer	cytotoxicity, resazurin reduction	72 h	> 100 µM
O=C(NCC1(c2nc(-c3ccccc3)cs2)CCOCC1)c1cccc(-c2noc(C(F)(F)F)n2)c1	NB-4	cell growth or viability, CCK-8	5 days	> 10 µM
COc1c(O)cc2oc3cc(O)c(CCC(C)C)c(O)c3c(=O)c2c1CCC(C)C	SW480	cell growth or viability	48 h	14.5 µM
C[C@@H]1Cc2c([nH]c3ccccc23)[C@@H](c2c(F)cc(/C=C/C(=O)O)cc2F)N1C12CC(C1)C2	MCF7/luciferase wild type	cell proliferation	–	0.0018 µM
COc1ccc(C[C@H]2COC(=O)[C@@H]2Cc2ccc(OCCCCCCCCC(=O)NO)c(OC)c2)cc1OC	Kasumi 1	cell growth or viability, CCK-8	48 h	> 5 µM
C=C(CC)C(=O)c1ccc(OCC(=O)NCCNC(=O)COc2ccc(C(=O)C(=C)CC)c(Cl)c2Cl)c(Cl)c1Cl	A549/DDP	cell growth or viability, CCK-8	72 h	~1.2 µM
Cc1cc(/C=C/C#N)cc(C)c1Oc1cc(Nc2ccc(C#N)cn2)nc2cnccc12	HuCC-A1	–	48 h	5.6 ± 1.3 µM
CCCC(CCC)C(=O)[O][Pt]([NH2])([NH2])([Cl])([Cl])[O]C(=O)C(C)c1ccc(CC(C)C)cc1 (stereo not shown)	LoVo	cell growth or viability, MTT	72 h	0.034 µM
CC(C)(C(=O)O)C1(O)CCCCC1	Fem-X	cell growth or viability	72 h	> 200 µM
CCOC12C(O)C(OC)C3(O)CC(C1C3OC(=O)c1ccccc1)C13C(OC)CCC4(COC)CN(C)C1C2C(OC)C43 (stereo not shown)	HBE	cell growth or viability, MTT	–	25.5 µM
CCCC(CCC)C(=O)NCCNC(=O)[C@]1(C)[C@@H]2CC[C@]3(C)[C@H](C(=O)C=C4[C@@H]5[C@@H](C)[C@H](C)CC[C@]5(C)CC[C@]43C)[C@@]2(C)CC[C@H]1OC(C)=O	HBE	cell growth or viability, MTT	48 h	> 30 µM
CC(=O)OC[C@]1(C)CCC[C@]2(C)[C@@H]1CC[C@@]13C[C@@H](C[C@H](O)[C@H]12)[C@H](C)C3=O	HBE	cell growth or viability, MTT	–	20 µM
CCOP(=O)(OCC)C(Cc1cccc(F)c1F)Nc1cccc(C)c1 (stereo not shown)	U-118-MG	cell growth or viability, MTT	48 h	48.6 µM
COc1c(C)c(O)c(C(=O)C=Cc2ccccc2)c(OC)c1C	FaDu	cell growth or viability, SRB	72 h	24.8 µM
CC1=C2[O][Ru-]([Cl])[O+]=C2C=CN1CCCN1C=CC2=[O+][Ru-]([Cl])[O]C2=C1C.Cc1ccc(C(C)C)cc1.Cc1ccc(C(C)C)cc1	LCLC-103H	cell growth or viability, crystal violet	96 h	> 20 µM
N[C@@H](CCC(=O)N[C@@H](CS[Se]Cc1ccc(-c2cc(C(F)(F)F)nn2-c2ccc(S(N)(=O)=O)cc2)cc1)C(=O)NCC(=O)O)C(=O)O	human melanoma cell lines	cell viability, MTS	–	7.66 µM
NC1=N[N+](=Cc2c3ccccc3cc3ccccc23)[Ga-3]23([S]1)([S]C(N)=N[N+]2=Cc1c2ccccc2cc2ccccc12)[S]C(N)=N[N+]3=Cc1c2ccccc2cc2ccccc12	CCD-18Co	–	48 h	41.9 ± 1.9 µM
CCCC(CCC)C(=O)[O][Pt]([NH2])([NH2])([Cl])([Cl])[O]C(=O)C(Cl)Cl	BCPAP	cell growth or viability, MTT	72 h	0.01 µM
CCOP(=O)(OCC)C(Cc1ccccc1F)Nc1ccccc1 (stereo not shown)	U-118-MG	cell growth or viability, MTT	48 h	86.8 µM
C[C@H](C(=O)Nc1ccc(Cn2cc(C(F)(F)F)ccc2=O)cc1)N(C)C	NIH3T3	cell proliferation, CCK-8	–	442 ± 4.8 µM

Compound	cell line	test	conditions	IC50
CC(C)(C)c1cc(=O)n2ncc(-c3ccc(F)cc3)c2[nH]1	SW620 tumour organoids	cell viability	72 h, 2% Matrigel, 0.4% DMSO	3.3 µM
COC(=O)[C@H]1[C@H]2C[C@H]3O[C@@]4(CCN3C[C@H]2C[C@@H](OC(=O)c2cc(OC)c(OC)c(OC)c2)[C@@H]1OC)C(=O)Nc1cc(OC)c(-c2ccccc2)cc14	RS4-11	cell growth or viability, trypan blue	72 h	10.2 µM
COc1ccc2c(c1)c(CC(=O)Nc1nnc(CCCCc3ccc(NC(=O)Cc4cccc(OC(F)(F)F)c4)nn3)[se]1)cn2C	H22	cell growth, inhibitor, EZMTT	120 h	1.8 to 2.9 µM
COc1ccc2cc3[n+](cc2c1OCc1cn(Cc2ccc(Cl)cc2F)nn1)CCc1cc2c(cc1-3)OCO2	SW1990	cell growth or viability, MTT	–	38.9 µM
C[C@H]1[C@H](C)CC[C@]2(C)CC[C@]3(C)C(=CC(=O)[C@@H]4[C@@]5(C)CC[C@@H](O)[C@](C)(C(=O)NCCNC(=O)C6CCCCC6)[C@@H]5CC[C@]43C)[C@H]12	HBE	cell growth or viability, MTT	48 h	25.7 µM
Cc1c(C)n(-c2c(C(C)C)cccc2C(C)C)c(=[Se])n1-c1c(C(C)C)cccc1C(C)C.[Cl][Au]	human ovarian cancer cells	cell viability, MTT	72 h	1 ± 0.1 µM
O=[N+]([O-])[O-].[NH3+][Pt-2]1([NH3+])[O]C(c2ccccc2)=CC(c2ccccc2)=[O+]1 (stereo not shown)	U2OS	cell growth or viability, MTT	–	2.7 µM
CC(C)c1cccc(C(C)C)c1-n1ccn(-c2c(C(C)C)cccc2C(C)C)c1=[Se].[Cl][Au]	human ovarian cancer cells	cell viability, MTT	72 h	6.2 ± 0.9 µM
Cc1cc(C)cc(/C=N/NC(=N)N/N=C/c2cc(C)cc(C)c2)c1	KP-4	cell growth or viability, crystal violet	72 h	29 µM
Nc1ccc(/C=C/C(=O)N2CCc3c(oc4c(-c5ccc(F)cc5)cc(-c5ccc(C(=O)N6CCC(F)(F)CC6)cc5)cc34)C2)cn1	U2OS	cell growth or viability, CCK-8	72 h	~2 µM
COc1ccc(-c2nn(-c3ccccc3)cc2/C=C(\C#N)c2nc3ccccc3[nH]2)cc1	SW1990	cell growth or viability, ATP luminescence	72 h	57.6 µM
CC1CC(=O)N(CCCN)N=C1c1ccc(NC(=O)N2Cc3ccncc3C2)cc1 (stereo not shown)	MDA-MB-453	cell growth or viability, ATP luminescence	–	0.00078 µM
[Cl][Au-][c]1n(-c2c(C(c3ccccc3)c3ccccc3)cc(C(c3ccccc3)c3ccccc3)cc2C(c2ccccc2)c2ccccc2)c2c([n+]1-c1c(C(c3ccccc3)c3ccccc3)cc(C(c3ccccc3)c3ccccc3)cc1C(c1ccccc1)c1ccccc1)-c1cccc3cccc-2c13	2008	cell growth, MTT	72 h	> 50 µM
O=c1ccn([C@@H]2O[C@H](CO)[C@@H](O)[C@H](F)[C@H]2O)c(=O)[nH]1	Molt4/C8	cell growth or viability	–	> 200 µM
C=C[CH2][Pd-]([Cl])[Cl].CC(C)c1cccc(C(C)C)c1-n1c[n+](-c2c(C(C)C)cccc2C(C)C)c2c1-c1cccc3cccc-2c13	2008	cell growth, MTT	72 h	5.5 ± 0.3 µM
CCCCCC(C)n1c(-c2cccnc2)nc(-c2ccc(C)cc2)c1-c1ccc(C)cc1 (stereo not shown)	L929	cell growth or viability, SRB	–	57.2 µM
COc1ccc2cc3[n+](cc2c1OCc1cn(Cc2ccccc2Cl)nn1)CCc1cc2c(cc1-3)OCO2	SW1990	cell growth or viability, MTT	–	40.7 µM
O=C(c1ccncc1)N1N=C2/C(=C/c3ccc4ccccc4c3)CCCC2C1c1ccc2ccccc2c1 (stereo not shown)	human erythrocytes	membrane protection, HRBC membrane stabilization	–	0.05 µM
C=CC(OC(C)=O)c1ccc(OC(C)=O)c(OC)c1 (stereo not shown)	HSC-4	cell growth or viability, MTT	24 h	5.1 µM
Cc1cc(/C=C/c2ccc(O)c(O)c2)[nH]n1	mouse Splenic lymphocyte	cell growth or viability, MTT	48 h	> 100 µM

Compound	cell line	test	conditions	IC50
N=C(N)NCCC[C@H](N)C(=O)N[C@@H](CC(=O)N[C@@H](Cc1ccc(O)cc1)C(=O)O)c1cccc2ccccc12	MCF-7 (no HER2 overexpression)	–	–	> 50 µM
N=C(N/N=C/c1cc2ccccc2[nH]1)N/N=C/c1cc2ccccc2[nH]1	KP-4	cell growth or viability, crystal violet	72 h	4.9 µM
CCn1cc(/C=C/c2ccc3ccccc3[n+]2CC)c2ccccc21	HFF	cell growth or viability, MTT	24 h	> 20 µM
N=C(N/N=C/c1ccc2ccc3cccc4ccc1c2c34)N/N=C/c1ccc2ccc3cccc4ccc1c2c34	KP-4	cell growth or viability, crystal violet	72 h	163 µM
CC(C)Oc1ccc(S(=O)(=O)c2ccc(Oc3ccc(C(=O)C(Cl)Cl)cc3[N+](=O)[O-])cc2)cc1	NCI-H1650	cell growth or viability, MTT	72 h	0.33 to 0.88 µM
COC(=O)[C@H]1[C@H]2CCN(CC[C@]3(O)C(=O)Nc4cc(OC)ccc43)C[C@H]2C[C@@H](OC(=O)c2cc(OC)c(OC)c(OC)c2)[C@@H]1OC	RS4-11	cell growth or viability, trypan blue	72 h	63.7 µM
CC(=O)OC[C@]1(C)CCC[C@]2(COC(C)=O)[C@@H]1CC[C@@]13C[C@@H](C[C@H](O)[C@H]12)[C@@H](C)C3=O	HBE	cell growth or viability, MTT	–	> 20 µM
O=[N][Fe]1([N]=O)[S](CCO)[Fe]([N]=O)([N]=O)[S]1CCO	N2a	cell growth or viability, CCK-8	24 h	9.8 µM
Cc1cnc2c(ccc3c(C)c(C)cnc32)c1C.O=C([O-])Cc1ccccc1Nc1c(Cl)cccc1Cl.O=C([O-])Cc1ccccc1Nc1c(Cl)cccc1Cl.[Mn+2]	HMLER breast cancer cells	cytotoxicity, MTT	72 h	0.186 ± 0.026 µM
CC1(C)CCC(CN2CCN(c3ccc(C(=O)NS(=O)(=O)c4ccc(NCC5COCCO5)c([N+](=O)[O-])c4)c(N4CCCOc5nc6[nH]ccc6cc54)c3)CC2)=C(c2ccc(Cl)cc2)C1 (stereo not shown)	RS4;11	apoptosis, TMRM and annexin V	72 h	0.00193 µM
Cc1cc(N)c2cc(NC(=O)COCC(=O)Nc3ccc4nc(C)cc(N)c4c3)ccc2n1	CHO wild type	FGF2 binding to heparan sulfate, inhibitor, flow cytometry	on ice, added: biotinylated FGF2 2.5 nM	0.7 ± 0.12 µM
COc1ccc2cc3[n+](cc2c1OCc1cn(Cc2ccccc2Br)nn1)CCc1cc2c(cc1-3)OCO2	SW1990	cell growth or viability, MTT	–	25.2 µM
CC(=O)O[C@@H]1CC[C@@]2(C)[C@@H](CC[C@]3(C)[C@@H]2C(=O)C=C2[C@@H]4[C@@H](C)[C@H](C)CC[C@]4(C)CC[C@]23C)[C@@]1(C)C(=O)NCCNC(=O)c1ccccc1	HBE	cell growth or viability, MTT	48 h	13.7 µM
CC(C)c1cccc(C(C)C)c1N1CCN(c2c(C(C)C)cccc2C(C)C)C1=[Se].[Cl][Au]	LoVo	cell growth or viability, MTT	72 h	4.2 µM
CC(=O)O[C@@H]1CC[C@@]2(C)[C@@H](CC[C@]3(C)[C@@H]2C(=O)C=C2[C@@H]4[C@@H](C)[C@H](C)CC[C@]4(C)CC[C@]23C)[C@@]1(C)C(=O)NCCNC(=O)CCCCCCC[P+](c1ccccc1)(c1ccccc1)c1ccccc1	HBE	cell growth or viability, MTT	48 h	11.3 µM
CC(C)Cc1ccc(C(C)C(=O)[O][Pt]([NH2])([NH2])([Cl])([Cl])[O]C(=O)CCCc2ccccc2)cc1 (stereo not shown)	LoVo	cell growth or viability, MTT	72 h	0.211 µM
Cc1cc(N)c2cc(NC(=O)C(=O)Nc3ccc4nc(C)cc(N)c4c3)ccc2n1	CHO wild type	FGF2 binding to heparan sulfate, inhibitor, flow cytometry	on ice, added: biotinylated FGF2 2.5 nM	0.9 ± 0.08 µM
CC(=O)O[C@@H]1CC[C@@]2(C)[C@@H](CC[C@]3(C)[C@@H]2C(=O)C=C2[C@@H]4[C@@H](C)[C@H](C)CC[C@]4(C)CC[C@]23C)[C@@]1(C)C(=O)NCCNC(=O)CC[P+](c1ccccc1)(c1ccccc1)c1ccccc1	HBE	cell growth or viability, MTT	48 h	18.3 µM
